Experimental data collected from several papers.
Parts stem from different laboratories: compare values within a part only. Values joined by “and” are separate records of one study, mostly repeats; a detail may differ. Substitutions count along the parent as printed.

Set 1
Target: Interferon regulatory factor 5, full length, phosphomimetic (IRF5, Homo sapiens, UniProt Q13568-2, residues 1-514, K96S/S451D/S453D/S456D/S462D)
Technique: protein-binding microarray
Molecule type: double-stranded DNA, one strand shown
Matrix: in vitro
Tested at: 250 nM
Notes: 60-bp whole probe
Together with: salmon DNA 0.4 mg/ml
Relative to: random background probes
Reading: higher = stronger binding
Constant ends, left off below: GCCTAGCAC … GTCTTGATTCGCTTGACGCTGCTG
| Strand | log fluorescence |
| --- | --- |
| TTTTTTTCCTAATTGAACCCGTGCTAG | 1.3 z-score |
| GACGGTTTCCTACAGCTGACGTGCTAG | 0.138 z-score |
| TTAGAACTGAGTTTCGATTTGTGCTAG | 9.31 z-score |
| TCAACTTTCTTTACTTCACTGTGCTAG | 2.1 z-score |
| TCATTTTTTTTTTTACTACTGTGCTAG | 1.06 z-score |
| TTAGGTCTCGGTCACGGTTAGTGCTAG | 0.44 z-score |
| GAAGGACTGGACACTGGGGACGTGCTA | -0.566 z-score |
| TTAGAACTGAGTCCCGATTAGTGCTAG | -0.142 z-score |

Set 2
Target: Histone acetyltransferase KAT6A, both winged helices, GST fusion (KAT6A, Homo sapiens, UniProt Q92794, residues 1-181)
Technique: protein binding microarray
Molecule type: double-stranded DNA, one strand shown
Matrix: in vitro
Tested at: not given
Notes: 8-mer, flanks averaged, mean of 2 arrays, mostly near background
Relative to: not given
Reading: higher = stronger binding
Target sequence (chain): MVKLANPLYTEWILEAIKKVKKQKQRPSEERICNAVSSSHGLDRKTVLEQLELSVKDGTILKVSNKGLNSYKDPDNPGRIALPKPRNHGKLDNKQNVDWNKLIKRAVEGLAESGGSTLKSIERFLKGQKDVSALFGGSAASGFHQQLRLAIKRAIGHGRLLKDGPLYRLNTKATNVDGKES
| Strand | E-score |
| --- | --- |
| AGAATTTC | 0.0107 |
| GAGGGGAA | -0.0284 |
| AATCACCA | -0.0426 |
| ATATGAAC | -0.0641 |
| TCCCCGGA | -0.0115 |
| GATCAGCC | -0.0983 |
| TGAGGTAA | -0.145 |
| ATACGTTC | -0.0473 |

Set 3
Target: ABI1, truncated, D143A, DHFR fusion (Arabidopsis thaliana)
Technique: DHFR PCA, deep sequencing
Matrix: yeast
Notes: methotrexate growth selection, single substitutions
Together with: (+)-ABA 0.032 µM
Relative to: wild-type fitted maximum
Reading: higher = stronger binding
Starting sequence: PYL1, truncated, DHFR fusion (Arabidopsis thaliana); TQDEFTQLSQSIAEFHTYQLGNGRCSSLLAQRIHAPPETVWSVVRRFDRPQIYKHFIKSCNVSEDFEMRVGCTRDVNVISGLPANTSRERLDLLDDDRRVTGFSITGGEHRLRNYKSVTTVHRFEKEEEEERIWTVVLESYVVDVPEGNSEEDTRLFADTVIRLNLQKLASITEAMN
| Variant | relative binding score [%] |
| --- | --- |
| H55I | 19.6 |
| L91K | 7.91 |
| D159K | -5.95 |
| I52C | 3.9 |
| R113A | 10.5 |
| E64N | 25.4 |
| V161C | 47.1 |
| S104I | 9.75 |

Other studies, line by line
| SMILES | test | test system | conditions | scale | endpoint | result |
| --- | --- | --- | --- | --- | --- | --- |
| CC(=O)N[C@@H](Cc1c[nH]c2ccccc12)C(=O)N[C@@H](CCC(=O)C=[N+]=[N-])C(=O)OC(C)C | UPLC-MS/MS metabolomics, item: cytidine | EL4, C57BL/6 CES1-/- mice, EL4 tumour, tumour | subcutaneous, 0.3 mg/kg/day DON equivalent, 5 days | higher = more metabolite | metabolite peak area | 4.14e+08 a.u. and 4.28e+08 a.u. and 4.84e+08 a.u. and 2.32e+08 a.u. and 3.62e+08 a.u. and 1.85e+08 a.u. |

Some of these lines once more (set 2):
| Strand | E-score |
| --- | --- |
| TGAGGTAA | -0.145 |
| AGAATTTC | 0.0107 |
